Measurements gathered from unrelated publications.
Each numbered part is a random draw from the data of one study; scales do not carry over between parts.
Sequence of UniProt Q9UEE5 (whole entry, looked up): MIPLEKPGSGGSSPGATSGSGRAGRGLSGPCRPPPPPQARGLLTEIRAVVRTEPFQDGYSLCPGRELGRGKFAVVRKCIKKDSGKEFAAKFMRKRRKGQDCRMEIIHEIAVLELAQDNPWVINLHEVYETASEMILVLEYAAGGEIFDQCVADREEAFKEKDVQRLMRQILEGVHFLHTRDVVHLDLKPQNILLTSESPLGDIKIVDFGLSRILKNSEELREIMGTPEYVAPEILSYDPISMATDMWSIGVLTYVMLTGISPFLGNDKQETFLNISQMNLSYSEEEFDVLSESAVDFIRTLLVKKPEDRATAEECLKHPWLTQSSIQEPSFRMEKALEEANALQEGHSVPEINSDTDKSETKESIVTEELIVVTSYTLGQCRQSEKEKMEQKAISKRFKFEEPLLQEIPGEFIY
Sequence of UniProt Q8NE63 (whole entry, looked up): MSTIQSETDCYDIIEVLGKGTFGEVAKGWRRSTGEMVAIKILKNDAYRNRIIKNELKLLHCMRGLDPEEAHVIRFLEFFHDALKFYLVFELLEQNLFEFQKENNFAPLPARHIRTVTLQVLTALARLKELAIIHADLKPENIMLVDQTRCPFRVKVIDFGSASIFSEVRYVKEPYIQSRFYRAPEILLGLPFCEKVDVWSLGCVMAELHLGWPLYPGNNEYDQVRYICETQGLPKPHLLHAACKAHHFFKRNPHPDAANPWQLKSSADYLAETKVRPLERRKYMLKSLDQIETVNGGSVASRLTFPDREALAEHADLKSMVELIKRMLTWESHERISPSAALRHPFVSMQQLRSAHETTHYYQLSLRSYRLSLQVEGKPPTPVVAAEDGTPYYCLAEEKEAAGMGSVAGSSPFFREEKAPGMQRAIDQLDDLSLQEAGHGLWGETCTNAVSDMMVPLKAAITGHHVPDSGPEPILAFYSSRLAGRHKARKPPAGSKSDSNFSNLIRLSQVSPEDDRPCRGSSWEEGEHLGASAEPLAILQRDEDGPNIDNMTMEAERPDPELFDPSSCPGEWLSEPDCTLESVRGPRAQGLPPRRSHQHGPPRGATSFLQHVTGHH
Sequence of UniProt Q8NI60 (whole entry, looked up): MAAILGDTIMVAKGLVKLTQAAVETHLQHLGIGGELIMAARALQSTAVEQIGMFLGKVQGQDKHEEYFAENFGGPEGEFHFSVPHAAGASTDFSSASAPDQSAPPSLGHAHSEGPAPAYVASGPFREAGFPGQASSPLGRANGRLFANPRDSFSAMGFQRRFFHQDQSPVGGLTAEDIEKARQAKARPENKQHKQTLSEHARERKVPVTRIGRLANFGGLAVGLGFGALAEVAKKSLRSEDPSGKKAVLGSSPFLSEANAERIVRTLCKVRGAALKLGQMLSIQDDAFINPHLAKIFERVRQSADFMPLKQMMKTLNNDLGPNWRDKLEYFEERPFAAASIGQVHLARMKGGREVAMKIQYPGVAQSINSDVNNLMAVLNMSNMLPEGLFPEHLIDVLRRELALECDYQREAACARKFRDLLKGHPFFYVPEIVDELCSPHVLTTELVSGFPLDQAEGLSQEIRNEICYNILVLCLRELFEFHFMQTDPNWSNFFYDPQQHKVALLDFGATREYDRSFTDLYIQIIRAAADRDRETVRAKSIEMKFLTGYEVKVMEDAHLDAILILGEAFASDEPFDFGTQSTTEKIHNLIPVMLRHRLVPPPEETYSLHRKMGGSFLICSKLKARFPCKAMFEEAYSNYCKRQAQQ
Sequence of UniProt Q96PN8 (whole entry, looked up): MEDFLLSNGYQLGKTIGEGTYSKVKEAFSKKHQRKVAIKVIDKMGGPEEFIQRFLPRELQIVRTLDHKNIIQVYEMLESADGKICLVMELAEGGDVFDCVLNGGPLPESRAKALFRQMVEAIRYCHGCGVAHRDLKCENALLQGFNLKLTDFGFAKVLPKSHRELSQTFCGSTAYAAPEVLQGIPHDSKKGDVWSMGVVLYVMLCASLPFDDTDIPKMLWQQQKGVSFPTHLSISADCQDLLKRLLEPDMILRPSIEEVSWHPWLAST

Set 1
Target: Calcium/calmodulin-dependent protein kinase type II subunit alpha (CAMK2A, Homo sapiens, UniProt Q9UQM7)
Sequence of UniProt Q9UQM7 (whole entry, looked up): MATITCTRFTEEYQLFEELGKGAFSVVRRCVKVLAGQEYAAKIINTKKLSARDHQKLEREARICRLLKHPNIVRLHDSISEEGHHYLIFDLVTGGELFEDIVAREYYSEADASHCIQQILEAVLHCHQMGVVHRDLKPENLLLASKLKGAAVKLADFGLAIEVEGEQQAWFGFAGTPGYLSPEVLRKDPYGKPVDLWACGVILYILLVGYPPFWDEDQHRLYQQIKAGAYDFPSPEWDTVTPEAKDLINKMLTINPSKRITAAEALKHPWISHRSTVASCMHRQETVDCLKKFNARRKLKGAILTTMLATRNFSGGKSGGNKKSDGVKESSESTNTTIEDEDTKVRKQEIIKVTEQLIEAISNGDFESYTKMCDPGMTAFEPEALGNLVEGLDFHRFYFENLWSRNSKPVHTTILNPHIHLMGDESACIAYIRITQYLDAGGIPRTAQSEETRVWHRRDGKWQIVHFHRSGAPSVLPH
Read-out: enzyme activity
Mode: inhibitor
Concentration: 10 µM
Structure (SMILES) | inhibition [%]
C=C(CC[C@@H](C(=O)O)[C@H]1[C@H](O)C[C@@]2(C)C3=CC[C@H]4C(C)(C)[C@@H](O)CC[C@]4(C)C3=CC[C@]12C)C(C)C | -1
C#CCC(Cc1cnc2nc(N)nc(N)c2n1)c1ccc(C(=O)N[C@@H](CCC(=O)O)C(=O)O)cc1 (stereo partly shown) | -6
CCCCCCCCCCCCCCCCCCCCCC(=O)O[C@H]1CC[C@@]2(C)C(=CC[C@H]3[C@@H]4CC[C@H]([C@H](C)CCCC(C)C)[C@@]4(C)CC[C@@H]32)C1 | 27
COc1cc2c(cc1O)CC[N+](C)(C)[C@@H]2Cc1ccc(O)cc1 | -39
C[C@H]1[C@H](C)CC[C@]2(C)CC[C@]3(C)C(=CC[C@@H]4[C@@]5(C)CC[C@@H](O)[C@](C)(C(=O)O)[C@@H]5CC[C@]43C)[C@H]12 | -16
CC(=O)OC[C@H]1O[C@@H](n2ccc(=O)[nH]c2=O)[C@H](OC(C)=O)[C@@H]1OC(C)=O | 1

Set 2
Target: DNA polymerase theta, ATPase domain (POLQ, Homo sapiens, UniProt O75417)
Sequence of UniProt O75417 (whole entry, unmodified, looked up): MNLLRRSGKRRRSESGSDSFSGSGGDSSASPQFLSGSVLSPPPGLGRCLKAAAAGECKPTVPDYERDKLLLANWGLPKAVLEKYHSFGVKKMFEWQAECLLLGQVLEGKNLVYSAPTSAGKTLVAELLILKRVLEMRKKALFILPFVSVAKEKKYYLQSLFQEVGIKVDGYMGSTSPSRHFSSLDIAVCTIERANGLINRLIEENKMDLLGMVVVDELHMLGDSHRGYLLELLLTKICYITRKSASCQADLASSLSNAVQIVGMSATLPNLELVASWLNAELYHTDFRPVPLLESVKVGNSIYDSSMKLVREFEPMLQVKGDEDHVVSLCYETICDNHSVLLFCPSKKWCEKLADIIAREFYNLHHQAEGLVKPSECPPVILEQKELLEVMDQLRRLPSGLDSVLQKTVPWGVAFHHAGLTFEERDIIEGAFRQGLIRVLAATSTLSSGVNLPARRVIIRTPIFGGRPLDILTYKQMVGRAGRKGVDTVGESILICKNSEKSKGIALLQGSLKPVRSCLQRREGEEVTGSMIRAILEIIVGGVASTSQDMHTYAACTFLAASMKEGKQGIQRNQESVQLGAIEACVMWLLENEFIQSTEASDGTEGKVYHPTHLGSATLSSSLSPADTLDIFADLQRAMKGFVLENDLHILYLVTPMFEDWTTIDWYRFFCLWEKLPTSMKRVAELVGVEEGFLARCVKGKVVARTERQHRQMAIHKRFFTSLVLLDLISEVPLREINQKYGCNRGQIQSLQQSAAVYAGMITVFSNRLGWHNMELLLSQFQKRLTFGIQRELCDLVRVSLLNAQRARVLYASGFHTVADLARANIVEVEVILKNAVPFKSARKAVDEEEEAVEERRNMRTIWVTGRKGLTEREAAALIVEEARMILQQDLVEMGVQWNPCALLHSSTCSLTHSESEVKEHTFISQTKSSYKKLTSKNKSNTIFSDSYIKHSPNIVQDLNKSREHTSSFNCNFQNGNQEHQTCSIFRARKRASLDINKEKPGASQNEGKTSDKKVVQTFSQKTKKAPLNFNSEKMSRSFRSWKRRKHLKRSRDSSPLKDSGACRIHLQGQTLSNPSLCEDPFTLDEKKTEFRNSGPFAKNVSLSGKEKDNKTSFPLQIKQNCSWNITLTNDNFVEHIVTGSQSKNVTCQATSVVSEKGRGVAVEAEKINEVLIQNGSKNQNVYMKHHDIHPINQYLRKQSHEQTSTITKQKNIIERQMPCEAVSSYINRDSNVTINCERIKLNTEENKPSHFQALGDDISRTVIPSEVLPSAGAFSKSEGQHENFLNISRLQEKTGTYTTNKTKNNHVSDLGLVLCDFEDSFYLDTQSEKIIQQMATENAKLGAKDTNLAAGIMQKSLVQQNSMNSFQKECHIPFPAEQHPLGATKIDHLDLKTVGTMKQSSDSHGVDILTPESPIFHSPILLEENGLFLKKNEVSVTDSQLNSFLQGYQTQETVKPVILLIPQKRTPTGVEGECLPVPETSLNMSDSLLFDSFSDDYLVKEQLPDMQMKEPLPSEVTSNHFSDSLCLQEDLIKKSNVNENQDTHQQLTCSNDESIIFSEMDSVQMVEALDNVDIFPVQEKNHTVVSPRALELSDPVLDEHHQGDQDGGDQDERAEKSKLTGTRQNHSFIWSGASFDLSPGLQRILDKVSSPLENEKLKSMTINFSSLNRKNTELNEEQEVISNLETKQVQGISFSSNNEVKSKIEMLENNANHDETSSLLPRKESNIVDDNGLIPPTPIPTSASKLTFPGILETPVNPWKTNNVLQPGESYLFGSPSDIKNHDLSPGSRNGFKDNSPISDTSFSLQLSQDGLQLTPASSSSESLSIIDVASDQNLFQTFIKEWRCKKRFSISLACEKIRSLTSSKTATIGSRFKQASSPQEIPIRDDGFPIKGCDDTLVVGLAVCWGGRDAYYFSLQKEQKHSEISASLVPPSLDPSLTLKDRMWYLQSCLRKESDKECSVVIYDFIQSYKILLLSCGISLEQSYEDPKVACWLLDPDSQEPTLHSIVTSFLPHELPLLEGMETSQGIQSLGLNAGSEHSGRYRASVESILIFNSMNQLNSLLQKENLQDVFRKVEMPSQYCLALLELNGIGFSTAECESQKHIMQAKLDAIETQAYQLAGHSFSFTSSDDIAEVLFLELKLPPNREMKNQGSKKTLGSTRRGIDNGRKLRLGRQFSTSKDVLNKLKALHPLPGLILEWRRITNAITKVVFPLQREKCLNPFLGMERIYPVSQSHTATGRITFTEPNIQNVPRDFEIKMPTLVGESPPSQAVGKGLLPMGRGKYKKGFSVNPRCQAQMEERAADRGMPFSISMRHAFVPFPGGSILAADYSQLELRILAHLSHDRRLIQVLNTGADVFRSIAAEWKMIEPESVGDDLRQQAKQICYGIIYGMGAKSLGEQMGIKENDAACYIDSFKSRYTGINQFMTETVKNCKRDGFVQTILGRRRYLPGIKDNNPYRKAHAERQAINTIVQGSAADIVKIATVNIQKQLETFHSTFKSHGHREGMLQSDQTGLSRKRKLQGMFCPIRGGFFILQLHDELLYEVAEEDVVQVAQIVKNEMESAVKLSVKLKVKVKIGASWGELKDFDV
Read-out: enzyme activity
Mode: inhibitor
Concentration: 77 µM
Reference: untreated
Structure (SMILES) | remaining activity
Oc1ccc(C2CNCc3sccc32)cc1O (stereo not shown) | 104%
C=C/C(C)=C/[C@@]1(C)SC(=O)C(C)=C1O | 100%
O[C@@H](CNC[C@H](O)[C@H]1CCc2cc(F)ccc2O1)[C@@H]1CCc2cc(F)ccc2O1 | 98.1%
O=S(=O)(O)CCS | 91.1%
Nc1ncnc2c1ncn2[C@@H]1O[C@H](COP(=O)(O)CP(=O)(O)OP(=O)(O)O)[C@@H](O)[C@H]1O | 102%
NCCc1cc[nH]n1 | 96.5%

Set 3
SMILES: O=C(NS(=O)(=O)c1ccc(NCC2CCOCC2)c([N+](=O)[O-])c1)c1ccc(N2CCN(Cc3ccc(C(F)(F)F)cc3-c3ccc(Cl)cc3)CC2)cc1Oc1cnc2[nH]ccc2c1
Concentration: 1 µM
target | read-out | technique | remaining binding [%]
STK17A (Homo sapiens, UniProt Q9UEE5) | cell-free assay | competition with immobilised ligand | 100
HIPK4 (Homo sapiens, UniProt Q8NE63) | cell-free assay | competition with immobilised ligand | 98
PIK3CA (Homo sapiens, UniProt P42336, I800L) | cell-free assay | competition with immobilised ligand | 100
PLK4 (Homo sapiens, UniProt O00444) | cell-free assay | competition with immobilised ligand | 98
MYLK3 (Homo sapiens, UniProt Q32MK0) | cell-free assay | competition with immobilised ligand | 100
COQ8A (Homo sapiens, UniProt Q8NI60) | cell-free assay | competition with immobilised ligand | 100
MAP3K20 (Homo sapiens, UniProt Q9NYL2) | cell-free assay | competition with immobilised ligand | 100
FGR (Homo sapiens, UniProt P09769) | cell-free assay | competition with immobilised ligand | 100
STK32B (Homo sapiens, UniProt Q9NY57) | cell-free assay | competition with immobilised ligand | 100
FLT3 (Homo sapiens, UniProt P36888, F691L/ITD) | cell-free assay | competition with immobilised ligand | 66
Tyrosine-protein kinase ABL1, non-phosphorylated (ABL1, Homo sapiens, UniProt P00519, F317I) | binding | competition with immobilised ligand | 87
EIF2AK1 (Homo sapiens, UniProt Q9BQI3) | cell-free assay | competition with immobilised ligand | 84
PIP4K2C (Homo sapiens, UniProt Q8TBX8) | cell-free assay | competition with immobilised ligand | 100
PRKAA1 (Homo sapiens, UniProt Q13131) | cell-free assay | competition with immobilised ligand | 84
PIK3C2G (Homo sapiens, UniProt O75747) | cell-free assay | competition with immobilised ligand | 80
CDC42BPG (Homo sapiens, UniProt Q6DT37) |  | competition binding | 100

Set 4
SMILES: O=C(Nc1cnn(-c2csc(C(=O)NC3COC3)c2)c1)Nc1c(F)cccc1Cl
Read-out: enzyme activity
Concentration: 5 µM
Reference: untreated control
target | remaining activity [%]
ULK3 (Homo sapiens, UniProt Q6PHR2) | 75
LCK (Homo sapiens, UniProt P06239) | 92.4
TSSK3 (Homo sapiens, UniProt Q96PN8) | 96.7
MAP3K7 (Homo sapiens, UniProt O43318) | 109
PKMYT1 (Homo sapiens, UniProt Q99640) | 89.2
CAMKK1 (Homo sapiens, UniProt Q8N5S9) | 93.6

Some of these lines once more (set 2):
Structure (SMILES) | remaining activity
C=C/C(C)=C/[C@@]1(C)SC(=O)C(C)=C1O | 100%
O[C@@H](CNC[C@H](O)[C@H]1CCc2cc(F)ccc2O1)[C@@H]1CCc2cc(F)ccc2O1 | 98.1%
O=S(=O)(O)CCS | 91.1%
Nc1ncnc2c1ncn2[C@@H]1O[C@H](COP(=O)(O)CP(=O)(O)OP(=O)(O)O)[C@@H](O)[C@H]1O | 102%
